Published values from different studies.
Lines come from different studies, so protocols differ.
Sequence of UniProt Q9P2K8 (whole entry, unmodified, looked up): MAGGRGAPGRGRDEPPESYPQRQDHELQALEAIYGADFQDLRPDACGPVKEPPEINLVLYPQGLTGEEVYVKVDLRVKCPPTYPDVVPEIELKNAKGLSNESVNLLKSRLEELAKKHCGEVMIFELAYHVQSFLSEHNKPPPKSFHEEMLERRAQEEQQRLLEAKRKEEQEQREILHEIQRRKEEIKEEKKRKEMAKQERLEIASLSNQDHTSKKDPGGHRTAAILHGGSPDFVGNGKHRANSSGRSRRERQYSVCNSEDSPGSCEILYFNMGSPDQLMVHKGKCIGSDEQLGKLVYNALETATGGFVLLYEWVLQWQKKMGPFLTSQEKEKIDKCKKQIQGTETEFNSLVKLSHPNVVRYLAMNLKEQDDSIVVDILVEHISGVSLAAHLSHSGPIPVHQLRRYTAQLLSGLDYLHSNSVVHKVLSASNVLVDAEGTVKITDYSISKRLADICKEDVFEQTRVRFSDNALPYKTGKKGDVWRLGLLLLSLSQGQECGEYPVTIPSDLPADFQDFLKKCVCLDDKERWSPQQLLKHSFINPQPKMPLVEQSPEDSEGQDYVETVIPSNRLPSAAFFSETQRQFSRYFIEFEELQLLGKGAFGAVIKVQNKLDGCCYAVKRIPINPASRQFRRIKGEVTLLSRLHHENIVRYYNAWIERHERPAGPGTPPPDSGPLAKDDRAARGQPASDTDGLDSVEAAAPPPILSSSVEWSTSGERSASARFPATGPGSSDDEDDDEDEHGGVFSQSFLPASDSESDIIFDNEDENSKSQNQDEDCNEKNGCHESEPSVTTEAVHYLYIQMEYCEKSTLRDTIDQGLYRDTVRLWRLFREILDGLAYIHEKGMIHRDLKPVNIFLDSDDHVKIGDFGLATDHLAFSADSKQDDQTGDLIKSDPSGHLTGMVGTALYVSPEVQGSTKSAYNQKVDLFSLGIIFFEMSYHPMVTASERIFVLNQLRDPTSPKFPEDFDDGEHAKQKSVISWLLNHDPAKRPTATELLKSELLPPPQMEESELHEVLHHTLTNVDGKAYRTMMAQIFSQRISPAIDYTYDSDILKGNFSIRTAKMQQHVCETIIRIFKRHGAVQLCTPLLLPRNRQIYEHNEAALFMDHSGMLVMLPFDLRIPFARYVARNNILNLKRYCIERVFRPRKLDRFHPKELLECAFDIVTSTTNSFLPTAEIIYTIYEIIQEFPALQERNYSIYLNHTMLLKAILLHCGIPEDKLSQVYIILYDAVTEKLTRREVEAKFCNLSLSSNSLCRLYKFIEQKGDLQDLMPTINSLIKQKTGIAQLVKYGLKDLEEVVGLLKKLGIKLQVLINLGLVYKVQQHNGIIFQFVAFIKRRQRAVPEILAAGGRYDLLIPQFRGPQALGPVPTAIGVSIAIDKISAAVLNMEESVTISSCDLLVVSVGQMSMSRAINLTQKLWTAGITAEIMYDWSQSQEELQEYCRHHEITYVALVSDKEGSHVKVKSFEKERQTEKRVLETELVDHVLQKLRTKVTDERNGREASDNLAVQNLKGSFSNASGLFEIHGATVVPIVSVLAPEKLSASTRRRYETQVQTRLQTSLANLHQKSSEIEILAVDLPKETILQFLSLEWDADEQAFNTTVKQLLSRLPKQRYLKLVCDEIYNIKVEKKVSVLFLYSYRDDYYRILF
Sequence of UniProt Q9H4B4 (whole entry, looked up): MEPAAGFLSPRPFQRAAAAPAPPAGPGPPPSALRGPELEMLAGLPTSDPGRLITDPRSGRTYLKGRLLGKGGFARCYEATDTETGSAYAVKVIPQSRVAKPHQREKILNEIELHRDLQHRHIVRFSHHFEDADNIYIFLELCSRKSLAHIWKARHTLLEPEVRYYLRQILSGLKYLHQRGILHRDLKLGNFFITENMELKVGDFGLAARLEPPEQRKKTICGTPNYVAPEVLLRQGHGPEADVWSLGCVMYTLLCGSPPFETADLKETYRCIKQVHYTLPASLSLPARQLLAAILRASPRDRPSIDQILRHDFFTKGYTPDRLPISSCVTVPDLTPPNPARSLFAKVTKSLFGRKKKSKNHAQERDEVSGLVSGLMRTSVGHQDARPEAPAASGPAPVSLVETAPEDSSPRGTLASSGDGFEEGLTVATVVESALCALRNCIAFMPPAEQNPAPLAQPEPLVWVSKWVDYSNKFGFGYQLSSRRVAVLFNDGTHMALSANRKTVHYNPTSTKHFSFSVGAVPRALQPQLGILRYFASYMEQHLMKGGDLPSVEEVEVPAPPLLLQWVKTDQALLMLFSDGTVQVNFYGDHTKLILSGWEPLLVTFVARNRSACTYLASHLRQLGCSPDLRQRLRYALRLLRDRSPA
Sequence of UniProt O43283 (whole entry, looked up): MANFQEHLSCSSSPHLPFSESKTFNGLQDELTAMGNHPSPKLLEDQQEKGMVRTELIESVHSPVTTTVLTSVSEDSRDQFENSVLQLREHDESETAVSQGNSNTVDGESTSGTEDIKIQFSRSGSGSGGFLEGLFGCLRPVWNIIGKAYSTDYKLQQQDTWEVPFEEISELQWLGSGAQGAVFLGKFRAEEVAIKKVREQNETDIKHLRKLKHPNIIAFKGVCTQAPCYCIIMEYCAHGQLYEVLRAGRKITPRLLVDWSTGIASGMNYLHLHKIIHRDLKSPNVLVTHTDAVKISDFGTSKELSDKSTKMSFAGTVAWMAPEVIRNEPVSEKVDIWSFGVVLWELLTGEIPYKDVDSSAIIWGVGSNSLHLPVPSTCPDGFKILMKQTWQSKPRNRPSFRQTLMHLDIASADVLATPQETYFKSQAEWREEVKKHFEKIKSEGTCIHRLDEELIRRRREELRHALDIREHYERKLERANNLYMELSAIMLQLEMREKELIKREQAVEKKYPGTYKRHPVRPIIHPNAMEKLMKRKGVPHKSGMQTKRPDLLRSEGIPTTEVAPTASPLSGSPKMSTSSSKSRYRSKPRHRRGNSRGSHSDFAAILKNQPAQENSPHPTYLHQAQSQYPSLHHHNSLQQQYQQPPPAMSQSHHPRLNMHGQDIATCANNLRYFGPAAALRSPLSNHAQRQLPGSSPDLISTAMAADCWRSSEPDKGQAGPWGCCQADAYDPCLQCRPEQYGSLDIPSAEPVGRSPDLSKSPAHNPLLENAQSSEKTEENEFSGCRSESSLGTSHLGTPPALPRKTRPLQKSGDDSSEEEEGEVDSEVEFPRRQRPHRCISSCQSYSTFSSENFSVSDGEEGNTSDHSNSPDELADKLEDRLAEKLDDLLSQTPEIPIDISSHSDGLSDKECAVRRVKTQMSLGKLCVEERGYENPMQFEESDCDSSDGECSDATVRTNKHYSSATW
Sequence of UniProt Q9UHD2 (whole entry, looked up): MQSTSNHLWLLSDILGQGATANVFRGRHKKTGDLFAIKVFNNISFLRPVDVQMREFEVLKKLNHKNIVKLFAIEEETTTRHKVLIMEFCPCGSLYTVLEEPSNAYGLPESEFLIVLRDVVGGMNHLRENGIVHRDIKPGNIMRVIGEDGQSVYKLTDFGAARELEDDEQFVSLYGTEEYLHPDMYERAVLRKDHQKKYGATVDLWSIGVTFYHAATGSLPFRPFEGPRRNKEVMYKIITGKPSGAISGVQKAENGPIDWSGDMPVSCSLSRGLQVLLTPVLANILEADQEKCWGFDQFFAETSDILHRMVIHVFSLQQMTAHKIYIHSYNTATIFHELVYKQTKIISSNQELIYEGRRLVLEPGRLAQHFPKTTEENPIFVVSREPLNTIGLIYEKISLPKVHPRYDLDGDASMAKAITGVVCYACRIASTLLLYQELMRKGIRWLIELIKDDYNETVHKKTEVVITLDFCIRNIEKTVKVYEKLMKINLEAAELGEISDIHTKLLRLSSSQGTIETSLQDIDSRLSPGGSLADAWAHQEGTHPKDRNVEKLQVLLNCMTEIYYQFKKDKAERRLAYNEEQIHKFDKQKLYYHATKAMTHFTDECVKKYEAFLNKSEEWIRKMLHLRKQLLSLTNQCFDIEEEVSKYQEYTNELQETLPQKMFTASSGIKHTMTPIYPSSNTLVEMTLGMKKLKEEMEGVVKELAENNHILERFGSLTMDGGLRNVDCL
Sequence of UniProt Q9Y2H1 (whole entry, looked up): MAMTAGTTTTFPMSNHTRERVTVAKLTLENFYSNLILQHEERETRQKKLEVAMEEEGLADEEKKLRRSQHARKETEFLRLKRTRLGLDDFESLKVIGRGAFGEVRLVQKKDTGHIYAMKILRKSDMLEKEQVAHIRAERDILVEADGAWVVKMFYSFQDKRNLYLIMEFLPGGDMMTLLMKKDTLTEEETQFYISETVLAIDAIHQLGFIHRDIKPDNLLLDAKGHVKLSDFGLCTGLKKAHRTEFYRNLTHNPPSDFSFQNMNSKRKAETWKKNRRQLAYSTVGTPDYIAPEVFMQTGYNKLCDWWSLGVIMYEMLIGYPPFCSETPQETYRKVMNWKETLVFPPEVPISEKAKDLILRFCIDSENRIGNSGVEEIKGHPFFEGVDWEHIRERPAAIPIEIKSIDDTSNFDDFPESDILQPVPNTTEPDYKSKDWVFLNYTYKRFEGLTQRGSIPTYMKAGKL

O=C(Nc1ccc(Oc2nnc(-c3ccc(Cl)cc3)c3ccccc23)cc1)c1ccccc1
viability (MCF7; cell growth or viability, MTT; 1.25 µM, 24 h): 4.74%

CN(Cc1ccc(C(C)(C)C)cc1)Cc1cccc2ccccc12
inhibition zone (Trichophyton rubrum; microbial growth, disc diffusion; ATCC28188; 0.004 µg/mL, 6 days): 55 mm

Cc1ccc(C(CS(=O)(=O)c2ccccc2)=NNC2=NC(=O)C(=NNc3ccc([N+](=O)[O-])cc3)S2)cc1
viability (WM 266-4; cell growth or viability, MTT; 25 µM, 48 h): 34.7%

COc1cc(Nc2ncc3c(n2)-c2ccc(Cl)cc2C(c2c(F)cccc2OC)=NC3)ccc1C(=O)O
IC50 (MB002; cell growth or viability; 7 days): 0.0147 µM

COc1ccc(COC[C@@](O)(CNCc2ccc(F)cc2)[C@@H]2CC[C@@H](C)C[C@H]2OCc2ccc(OC)cc2)cc1
inhibition (A2780; cell growth or viability, MTT; 10 µM, 72 h): 94.1%

C1=C/COCc2cc(ccc2OCCN2CCCC2)Nc2nccc(n2)-c2cccc(c2)COC/1
remaining signal (MAP3K13 (Homo sapiens, UniProt O43283); cell-free assay; 0.1 µM): 61%

O=C(C=Cc1ccccc1)Nc1ccc(Oc2nnc(-c3ccc(Cl)cc3)c3ccccc23)cc1
viability (MCF7; cell growth or viability, MTT; 1.25 µM, 24 h): 39.9%

C[C@@H]1CC[C@@H]([C@](C)(O)CNCc2ccccc2)[C@H](OCc2ccccc2)C1
inhibition (HeLa; cell growth or viability, MTT; 10 µM, 72 h): 97.7%

Cc1[nH]c(C)c(-c2ccc(OCc3ccc(OC(F)(F)F)cc3)nc2)c(=O)c1Br
IC50 (HEK293; cell growth or viability): > 10 µM

C=CCNC(=S)NNC(=O)COc1ccc2c(C)c(CC)c(=O)oc2c1C
viability (PC-3; cell growth or viability, MTT; 62.5 µg/mL): 87.6%

CC(=NNC(=O)c1cccnc1)c1ccc(Nc2nnc(-c3ccc(Cl)cc3)c3ccccc23)cc1
cell death (MCF7; cell growth or viability, MTT; 1.25 µM): 84.6%

Cc1cc([C@@H](C)Nc2ccccc2C(=O)O)c2nc(N3CCC(F)(F)CC3)c(C#N)c(=O)n2c1
remaining binding (PLK3 (Homo sapiens, UniProt Q9H4B4); binding, competition with immobilised ligand; 10 µM): 100%

CNc1ncc2c(/C=C/C(=O)N3CCC(OC)CC3)nn(CC(C)(C)C)c2n1
EC50 (FLO-1; cell growth or viability, resazurin; 5 days): > 30 µM

CCCCC(=O)Nc1ccc(-c2ccc3ncn(CCC)c(=O)c3c2)cn1
remaining binding (EIF2AK4 (Homo sapiens, UniProt Q9P2K8, S808G); binding, competition with immobilised ligand; 0.5 µM): 76%

COc1ccc(C=CC(=O)NC(=O)c2ccccc2OC(=O)c2ccccc2)cc1OC
IC50 (HEK293; cell growth or viability): > 10 µM

CC(=O)Nc1ccc(Oc2nnc(-c3ccc(Cl)cc3)c3ccccc23)cc1
cell death (MCF7; cell growth or viability, MTT; 10 µM): 94.2%

CCC(=CCc1c(O)cc2c(c1O)C(=O)C[C@@H](c1ccccc1O)O2)CC
inhibition (HeLa; cell growth or viability, MTT; 7.5 µM, 48 h): 0.481%

Cc1n[nH]c2ccc3nc(-c4ccc(C(=O)NCCN(C)C)cc4)c4c(c3c12)CCCCC4
GI50 (Kasumi 1; cell growth or viability; 72 h): 0.254 µM

C=CC(=O)N1CCC(COCC(=O)N2CCN(c3nc(-c4cnc(N)nc4C(F)F)nc(N4CCOC[C@@H]4C)n3)CC2)CC1
remaining binding (STK38L (Homo sapiens, UniProt Q9Y2H1); binding, competition with immobilised ligand; 1 µM): 73%

CCCOc1ccc2c(C)c(CC)c(=O)oc2c1C
viability (PC-3; cell growth or viability, MTT; 1000 µg/mL): 4.85%

O=C(Nc1ccc(Oc2nnc(-c3ccc(Cl)cc3)c3ccccc23)cc1)c1cccc([N+](=O)[O-])c1
viability (MCF7; cell growth or viability, MTT; 0.156 µM, 24 h): 38.4%

CNc1ncc2c(/C=C/C(=O)O)nn(CC3CCCC3)c2n1
EC50 (FLO-1; cell growth or viability, resazurin; 5 days): > 30 µM

COc1cc(-c2cncc3c2CN(C)Cc2cc(N4CCNCC4)ccc2-3)cc(OC)c1OC
remaining activity (TBK1 (Homo sapiens, UniProt Q9UHD2); enzyme activity, inhibitor; 1 µM): 114%

CCOC1CCN(C(=O)/C=C/c2nn(Cc3cccc(C)c3)c3nc(NC)ncc23)CC1
EC50 (FLO-1; cell growth or viability, resazurin; 5 days): 3.59 µM

Cc1cccc(N(O)N=Nc2ccc(S(=O)(=O)Nc3nccs3)cc2)c1
inhibition (ABTS scavenging; 300 µg/mL): 96.4%

CC(=NNC(=O)c1ccncc1)c1ccc(Nc2nnc(-c3ccc(Cl)cc3)c3ccccc23)cc1
viability (MCF7; cell growth or viability, MTT; 0.625 µM, 24 h): 4.47%

OCc1ccc(-c2nn(Cc3ccncc3)c3cccnc23)o1
inhibition (RBE; cell growth or viability, ATP luminescence; 46 µM, 72 h): 73%

CCN(O)N=Nc1ccc(S(=O)(=O)Nc2cc(C)on2)cc1
inhibition (ABTS scavenging; 300 µg/mL): 38.4%

CCOc1ccc2c(C)c(CC)c(=O)oc2c1C
viability (PC-3; cell growth or viability, MTT; 31.25 µg/mL): 100%

CC(=NNC(N)=S)c1ccc(Nc2nnc(-c3ccc(Cl)cc3)c3ccccc23)cc1
viability (MCF7; cell growth or viability, MTT; 1.25 µM, 24 h): 5.53%

C[C@@H]1CC[C@@H]([C@](C)(O)CNCc2ccc(F)cc2)[C@H](OCc2ccccc2)C1
inhibition (A2780; cell growth or viability, MTT; 30 µM, 72 h): 29.8%

Cc1[nH]c(C)c(-c2cccc(-c3ccc(OC(F)(F)F)cc3)c2)c(=O)c1Br
IC50 (HEK293; cell growth or viability): > 10 µM

CC(=NNC(=O)c1ccc(N)cc1)c1ccc(Nc2nnc(-c3ccc(Cl)cc3)c3ccccc23)cc1
cell death (MCF7; cell growth or viability, MTT; 0.312 µM): 13%

A few entries again:
O=C(Nc1ccc(Oc2nnc(-c3ccc(Cl)cc3)c3ccccc23)cc1)c1cccc([N+](=O)[O-])c1
viability (MCF7; cell growth or viability, MTT; 0.156 µM, 24 h): 38.4%

OCc1ccc(-c2nn(Cc3ccncc3)c3cccnc23)o1
inhibition (RBE; cell growth or viability, ATP luminescence; 46 µM, 72 h): 73%
